Measurements from different studies.
A part holds a random share of what one study measured.

Block 1 — technique: protein binding microarray; form: double-stranded DNA, one strand shown; medium: in vitro; tested at: not given; relative to: not given; reading: higher = stronger binding; quantity: E-score
Target: Histone acetyltransferase KAT6A, both winged helices, GST fusion (KAT6A, Homo sapiens, UniProt Q92794, residues 1-181)
Setting: 8-mer, flanks averaged, mean of 2 arrays, mostly near background
Residues (chain): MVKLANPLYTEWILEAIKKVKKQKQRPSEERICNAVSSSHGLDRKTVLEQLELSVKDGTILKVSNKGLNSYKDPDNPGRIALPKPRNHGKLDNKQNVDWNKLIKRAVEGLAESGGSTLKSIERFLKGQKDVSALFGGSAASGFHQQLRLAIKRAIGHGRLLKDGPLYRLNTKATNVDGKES
AAAGGACT: -0.176
AAATCGCA: 0.00513
ATCCTGAG: -0.0584
CTATCGTA: 0.00352

Block 2 — technique: protein-binding microarray; form: double-stranded DNA, one strand shown; medium: in vitro; tested at: 0.8 µM; setting: whole 60-bp probe, no competitor; reading: higher = stronger binding; quantity: fluorescence intensity
Target: Centromere-binding protein 1, full length, N-terminal tag (CBF1, Saccharomyces cerevisiae, UniProt P17106, residues 1-351)
UniProt P17106, sequence (whole entry, looked up): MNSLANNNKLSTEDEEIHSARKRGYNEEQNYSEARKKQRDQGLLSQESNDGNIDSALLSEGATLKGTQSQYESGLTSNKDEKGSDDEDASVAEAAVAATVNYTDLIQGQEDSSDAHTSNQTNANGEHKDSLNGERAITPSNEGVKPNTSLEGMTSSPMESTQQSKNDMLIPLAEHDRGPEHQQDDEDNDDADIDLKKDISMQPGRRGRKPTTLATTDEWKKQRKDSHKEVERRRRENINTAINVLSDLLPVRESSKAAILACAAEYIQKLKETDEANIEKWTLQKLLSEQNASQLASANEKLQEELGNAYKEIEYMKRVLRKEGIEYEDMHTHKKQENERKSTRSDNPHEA
CTATGATTGAGACGTGTTGTGTTTAAACTATCCTTCGTCTTGATTCGCTTGACGCTGCTG: 507 a.u.
GAAATAACTACATCTGATGTCATAGATTTTAAATAGGTCTTGATTCGCTTGACGCTGCTG: 538 a.u.
CTATTGAAAATATACAACGTGGTTACATAAAGATTCGTCTTGATTCGCTTGACGCTGCTG: 740 a.u.

Block 3 — technique: universal PBM; form: double-stranded DNA, one strand shown; medium: in vitro; tested at: not given; reading: higher = stronger binding; quantity: E-score
Target: Sal-like protein 4, full length isoform B (SALL4, Homo sapiens, UniProt Q9UJQ4-2, residues 1-616)
Setting: 8-mer, flanks averaged, mean of replicates
CGACGTGA: -0.018
ATGGGTGG: -0.0121
CAATCTAC: -0.0772
AAAACTTT: 0.142

Mixed results
PhoQ, residues 284 288 289 292 302 303 HSSMNL
fold induction (PhoP, residues 12 14 15 18 19 LWHVM (Escherichia coli, UniProt P23836); Sort-seq, refers to: YFP reporter; E. coli; PhoQ-PhoP variant library, added: 10 µM Mg2+; relative to: high Mg2+ state, higher = stronger signaling): 15.5

A few entries again (block 1):
ATCCTGAG: -0.0584
AAATCGCA: 0.00513
